# Experimental data of several laboratories.
# Parts stem from different laboratories: compare values within a part only.

# Set 1
# Target: Sal-like protein 4, full length isoform B (SALL4, Homo sapiens, UniProt Q9UJQ4-2, residues 1-616)
# Technique: universal PBM
# Molecule type: double-stranded DNA, one strand shown
# Sample: in vitro
# Concentration: not given
# Setting: 8-mer, flanks averaged, mean of replicates
# Reading: higher = stronger binding
# Construct (chain): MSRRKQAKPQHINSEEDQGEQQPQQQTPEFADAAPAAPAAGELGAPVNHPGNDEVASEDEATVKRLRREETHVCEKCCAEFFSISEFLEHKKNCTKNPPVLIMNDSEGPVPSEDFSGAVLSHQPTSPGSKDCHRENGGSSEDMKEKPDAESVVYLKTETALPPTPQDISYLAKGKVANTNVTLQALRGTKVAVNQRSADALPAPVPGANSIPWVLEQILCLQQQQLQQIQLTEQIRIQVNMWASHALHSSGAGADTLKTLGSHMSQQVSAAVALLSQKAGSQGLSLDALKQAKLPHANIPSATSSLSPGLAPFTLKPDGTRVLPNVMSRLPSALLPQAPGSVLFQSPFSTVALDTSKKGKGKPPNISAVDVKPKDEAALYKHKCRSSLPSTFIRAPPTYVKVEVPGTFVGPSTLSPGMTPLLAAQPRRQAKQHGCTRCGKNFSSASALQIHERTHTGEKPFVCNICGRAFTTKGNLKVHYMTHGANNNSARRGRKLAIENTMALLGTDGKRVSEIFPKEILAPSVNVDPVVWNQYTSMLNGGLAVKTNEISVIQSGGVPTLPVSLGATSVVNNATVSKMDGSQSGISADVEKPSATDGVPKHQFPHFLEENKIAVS
Strand,E-score
ACGGGTGG,-0.326
ATGCGGTA,-0.0422
CACCATAA,0.255
CGGTACGA,-0.192
CTTCACCA,-0.0942
CTGCCGCC,-0.4

# Set 2
# Target: Fragile X messenger ribonucleoprotein 1, C-terminal low-complexity region (Fmr1, Mus musculus, UniProt P35922)
# Technique: RNA Bind-n-Seq
# Molecule type: RNA
# Sample: in vitro
# Concentration: 200 nM
# Setting: whole 134-nt RNA, ends assumed
# Together with: 150 mM KCl
# Reference: input library
# Reading: higher = stronger binding
Strand,log2 enrichment
GGGAGUUCUACAGUCCGACGAUCCACAGACAACACGCACCCACACAGACACAGUGGGAAGGGGUUGGGAUGGGGACAGGGUGCACAGCAGGGCGGGGUAGGACCCCAGCCCCUUGGAAUUCUCGGGUGUCAAGG,1.34
GGGAGUUCUACAGUCCGACGAUCAGUCCUGUGCUACACAUCGUAUGUACCGAAUCGGGCCCCGGGCCCCGGGGCCCCGGGAAAGUAUUAUGUUACGCCGUUCGGAUCUGCACUUGGAAUUCUCGGGUGUCAAGG,-0.266
GGGAGUUCUACAGUCCGACGAUCUUCCGCUGUCUUUUCUGUCUACAGUUUGCGAUCCCCGCGUCCAGGAUGGAGCAGCUGAACGAACUGGAGCUGCUGAUGGAGAAGAGUUUUUGGAAUUCUCGGGUGUCAAGG,-0.797
GGGAGUUCUACAGUCCGACGAUCAAGUCCUGUGCUACACAUCGUAUGUACCGAAUCGGGGUUUUGGUUUUGGUUUUGGGGAAAGUAUUAUGUUACGCCGUUCGGAUCUGCACUUGGAAUUCUCGGGUGUCAAGG,-0.416

# Set 3
# Target: Histone acetyltransferase KAT6A, both winged helices, GST fusion (KAT6A, Homo sapiens, UniProt Q92794, residues 1-181)
# Technique: protein binding microarray
# Molecule type: double-stranded DNA, one strand shown
# Sample: in vitro
# Concentration: not given
# Setting: 8-mer, flanks averaged, mean of 2 arrays, mostly near background
# Reference: not given
# Reading: higher = stronger binding
# Construct (chain): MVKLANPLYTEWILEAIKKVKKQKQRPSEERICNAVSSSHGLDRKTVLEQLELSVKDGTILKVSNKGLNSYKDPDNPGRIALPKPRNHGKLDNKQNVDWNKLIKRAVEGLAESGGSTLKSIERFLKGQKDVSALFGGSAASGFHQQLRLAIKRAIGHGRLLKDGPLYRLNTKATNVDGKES
Strand,E-score
AGTACCAC,-0.0592
TAGGTACA,-0.185
TATAAAAA,-0.0282
AGCAATCA,-0.134
CATTAACA,-0.112

# Other studies, line by line
Molecule,target,assay,test system,setting,scale,quantity,value
"PhoQ, residues 284 288 289 292 302 303 TLASMF","PhoP, residues 12 14 15 18 19 LHHVQ (Escherichia coli, UniProt P23836)","Sort-seq, refers to: YFP reporter",E. coli,"PhoQ-PhoP variant library, together with: 10 µM Mg2+","reference: high Mg2+ state, higher = stronger signaling",fold induction,9.43

# Excerpt of the above (other studies, line by line):
Molecule,target,assay,test system,setting,scale,quantity,value
"PhoQ, residues 284 288 289 292 302 303 TLASMF","PhoP, residues 12 14 15 18 19 LHHVQ (Escherichia coli, UniProt P23836)","Sort-seq, refers to: YFP reporter",E. coli,"PhoQ-PhoP variant library, together with: 10 µM Mg2+","reference: high Mg2+ state, higher = stronger signaling",fold induction,9.43
